Measurements of several laboratories.

CC(C)(C(=O)N1CCOc2c(C#N)cncc2C1)C(F)F — result for “subjects with adverse event”: 0% (measured: conjunctival hyperaemia; human; oral, 10 mg once daily, 14 days, multiple ascending dose).
Cc1cc(Nc2cc3ncccc3c(N[C@@H]3C[C@H]4CC[C@@H](C3)N4CCC#N)n2)n[nH]1: “subjects with epistaxis” 0% (healthy human; oral, 30 mg single dose, 2 weeks).
For CN1CCN(c2cccc3c2CCN(C(=O)/C=C/c2c(-n4cnnn4)ccc(Cl)c2F)[C@@H]3C(=O)Nc2ccc(C(=O)O)cc2)C(=O)C1, “subjects with serious adverse event” read 0% (healthy human subjects; intravenous infusion, 20 mg/h, 5 days).
For Cc1cc(-c2nccc3c2ccn3CC(=O)Nc2ccc(-c3cnccn3)cn2)ccn1, “subjects with Headache adverse event” read 33.3% (human; 20 mg once daily, multiple ascending dose).
CNC(=O)c1ccc(-c2cnc3ncc(Cc4ccc5ncccc5c4)n3n2)cc1F: “subjects with adverse event” 0% (healthy human subjects; oral, 400 mg, Dizziness, grade 3, all causality, together with: rifampicin 600 mg/day).
C[C@@H](Oc1ccc(S(C)(=O)=O)cc1C(=O)N1C[C@@H]2C[C@]2(c2cc(C(F)(F)F)on2)C1)C(F)(F)F: “subjects with gastrointestinal disorders” 33.3% (human; oral plus intravenous microtracer, dose not given).
Under “subjects with TEAE”, CC(C)n1c(Nc2cccnc2)nc2cnc(Nc3ccc(N4CCN(C)CC4)cc3)nc21 is recorded as 11.9% (measured: aspartate aminotransferase increased; healthy human, male; oral, dose not given, CTCAE grade 1-3).
For C[C@H]1CN(C(=O)CC#N)[C@]12CCN(c1ncnc3[nH]ccc13)C2, “subjects withdrawn for AEs” read 0% (healthy human; oral, 3 mg single).

A few entries again:
For CN1CCN(c2cccc3c2CCN(C(=O)/C=C/c2c(-n4cnnn4)ccc(Cl)c2F)[C@@H]3C(=O)Nc2ccc(C(=O)O)cc2)C(=O)C1, “subjects with serious adverse event” read 0% (healthy human subjects; intravenous infusion, 20 mg/h, 5 days).
